# Measured values gathered from unrelated publications.
# Each line is one published result; not all experiments were run side by side.
# TLK2: Serine/threonine-protein kinase tousled-like 2 (TLK2, Homo sapiens, UniProt Q86UE8)
# Chain of UniProt Q86UE8 (whole entry, looked up): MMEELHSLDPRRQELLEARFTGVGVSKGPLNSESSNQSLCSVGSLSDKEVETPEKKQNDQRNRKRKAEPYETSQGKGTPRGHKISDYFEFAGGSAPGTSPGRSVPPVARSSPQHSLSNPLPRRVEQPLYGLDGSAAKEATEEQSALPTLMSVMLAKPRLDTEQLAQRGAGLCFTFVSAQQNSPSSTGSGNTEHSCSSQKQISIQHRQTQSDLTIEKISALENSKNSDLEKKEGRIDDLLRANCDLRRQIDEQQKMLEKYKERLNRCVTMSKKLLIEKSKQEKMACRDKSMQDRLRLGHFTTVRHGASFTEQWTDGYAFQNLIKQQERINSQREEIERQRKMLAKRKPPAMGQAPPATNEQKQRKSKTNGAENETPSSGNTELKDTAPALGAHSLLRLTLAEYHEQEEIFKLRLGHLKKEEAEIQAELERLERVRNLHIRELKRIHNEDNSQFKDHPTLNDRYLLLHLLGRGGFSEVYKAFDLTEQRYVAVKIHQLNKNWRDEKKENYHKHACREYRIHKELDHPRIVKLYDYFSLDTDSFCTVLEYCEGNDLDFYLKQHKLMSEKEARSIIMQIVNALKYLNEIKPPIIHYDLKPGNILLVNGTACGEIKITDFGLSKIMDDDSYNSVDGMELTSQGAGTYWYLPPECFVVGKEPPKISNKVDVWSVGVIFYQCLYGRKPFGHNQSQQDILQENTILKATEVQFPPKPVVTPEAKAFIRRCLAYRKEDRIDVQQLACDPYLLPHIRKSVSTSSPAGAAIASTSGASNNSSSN
# UCHL1: Ubiquitin carboxyl-terminal hydrolase isozyme L1 (UCHL1, Homo sapiens, UniProt P09936)
# Chain of UniProt P09936 (whole entry, looked up): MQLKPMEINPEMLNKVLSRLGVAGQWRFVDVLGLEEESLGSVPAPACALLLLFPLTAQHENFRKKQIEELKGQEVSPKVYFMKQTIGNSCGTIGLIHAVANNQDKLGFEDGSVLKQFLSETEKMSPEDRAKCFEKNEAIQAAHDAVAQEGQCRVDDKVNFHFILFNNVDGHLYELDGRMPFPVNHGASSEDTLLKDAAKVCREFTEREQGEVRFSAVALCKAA
# Chain of UniProt Q8WU08 (whole entry, looked up): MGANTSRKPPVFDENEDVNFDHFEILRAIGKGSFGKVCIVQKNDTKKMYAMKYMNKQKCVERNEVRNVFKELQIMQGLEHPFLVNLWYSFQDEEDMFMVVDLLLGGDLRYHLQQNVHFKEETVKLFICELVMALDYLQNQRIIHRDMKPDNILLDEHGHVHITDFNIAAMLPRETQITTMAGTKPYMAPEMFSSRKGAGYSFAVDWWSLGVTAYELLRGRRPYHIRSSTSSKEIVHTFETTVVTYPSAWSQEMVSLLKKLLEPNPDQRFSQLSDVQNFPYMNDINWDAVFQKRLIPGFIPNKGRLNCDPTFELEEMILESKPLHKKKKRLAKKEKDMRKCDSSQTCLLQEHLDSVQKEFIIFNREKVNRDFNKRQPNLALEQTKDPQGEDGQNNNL
# Chain of UniProt O95835 (whole entry, looked up): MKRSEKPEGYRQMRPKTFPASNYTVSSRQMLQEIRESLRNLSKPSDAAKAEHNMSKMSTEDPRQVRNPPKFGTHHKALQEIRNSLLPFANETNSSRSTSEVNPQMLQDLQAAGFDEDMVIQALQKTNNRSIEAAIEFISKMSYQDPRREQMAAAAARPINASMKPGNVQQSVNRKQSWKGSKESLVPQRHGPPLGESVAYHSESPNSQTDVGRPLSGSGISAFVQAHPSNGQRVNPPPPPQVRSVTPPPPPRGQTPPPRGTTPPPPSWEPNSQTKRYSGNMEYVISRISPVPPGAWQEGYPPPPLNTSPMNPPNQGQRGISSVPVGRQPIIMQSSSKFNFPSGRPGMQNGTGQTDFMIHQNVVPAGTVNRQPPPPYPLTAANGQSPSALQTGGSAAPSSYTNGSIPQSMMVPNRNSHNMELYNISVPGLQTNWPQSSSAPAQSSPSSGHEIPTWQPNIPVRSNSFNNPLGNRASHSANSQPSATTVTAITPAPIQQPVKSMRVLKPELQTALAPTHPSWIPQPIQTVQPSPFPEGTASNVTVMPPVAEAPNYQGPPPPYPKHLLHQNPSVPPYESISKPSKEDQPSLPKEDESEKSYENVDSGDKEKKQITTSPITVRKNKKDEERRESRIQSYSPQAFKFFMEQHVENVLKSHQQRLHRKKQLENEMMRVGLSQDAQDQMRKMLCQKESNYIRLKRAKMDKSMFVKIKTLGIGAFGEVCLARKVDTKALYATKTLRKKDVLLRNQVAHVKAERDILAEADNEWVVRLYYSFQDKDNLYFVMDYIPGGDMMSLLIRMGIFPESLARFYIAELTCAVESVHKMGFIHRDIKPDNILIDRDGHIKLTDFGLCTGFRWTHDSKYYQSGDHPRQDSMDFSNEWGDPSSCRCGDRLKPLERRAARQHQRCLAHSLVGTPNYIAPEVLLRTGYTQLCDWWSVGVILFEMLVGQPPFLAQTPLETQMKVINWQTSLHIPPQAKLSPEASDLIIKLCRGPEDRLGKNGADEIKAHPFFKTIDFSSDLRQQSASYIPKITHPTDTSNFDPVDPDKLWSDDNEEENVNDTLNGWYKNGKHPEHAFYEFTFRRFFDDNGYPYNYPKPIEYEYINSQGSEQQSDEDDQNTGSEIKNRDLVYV
# Chain of UniProt Q92626 (whole entry, looked up): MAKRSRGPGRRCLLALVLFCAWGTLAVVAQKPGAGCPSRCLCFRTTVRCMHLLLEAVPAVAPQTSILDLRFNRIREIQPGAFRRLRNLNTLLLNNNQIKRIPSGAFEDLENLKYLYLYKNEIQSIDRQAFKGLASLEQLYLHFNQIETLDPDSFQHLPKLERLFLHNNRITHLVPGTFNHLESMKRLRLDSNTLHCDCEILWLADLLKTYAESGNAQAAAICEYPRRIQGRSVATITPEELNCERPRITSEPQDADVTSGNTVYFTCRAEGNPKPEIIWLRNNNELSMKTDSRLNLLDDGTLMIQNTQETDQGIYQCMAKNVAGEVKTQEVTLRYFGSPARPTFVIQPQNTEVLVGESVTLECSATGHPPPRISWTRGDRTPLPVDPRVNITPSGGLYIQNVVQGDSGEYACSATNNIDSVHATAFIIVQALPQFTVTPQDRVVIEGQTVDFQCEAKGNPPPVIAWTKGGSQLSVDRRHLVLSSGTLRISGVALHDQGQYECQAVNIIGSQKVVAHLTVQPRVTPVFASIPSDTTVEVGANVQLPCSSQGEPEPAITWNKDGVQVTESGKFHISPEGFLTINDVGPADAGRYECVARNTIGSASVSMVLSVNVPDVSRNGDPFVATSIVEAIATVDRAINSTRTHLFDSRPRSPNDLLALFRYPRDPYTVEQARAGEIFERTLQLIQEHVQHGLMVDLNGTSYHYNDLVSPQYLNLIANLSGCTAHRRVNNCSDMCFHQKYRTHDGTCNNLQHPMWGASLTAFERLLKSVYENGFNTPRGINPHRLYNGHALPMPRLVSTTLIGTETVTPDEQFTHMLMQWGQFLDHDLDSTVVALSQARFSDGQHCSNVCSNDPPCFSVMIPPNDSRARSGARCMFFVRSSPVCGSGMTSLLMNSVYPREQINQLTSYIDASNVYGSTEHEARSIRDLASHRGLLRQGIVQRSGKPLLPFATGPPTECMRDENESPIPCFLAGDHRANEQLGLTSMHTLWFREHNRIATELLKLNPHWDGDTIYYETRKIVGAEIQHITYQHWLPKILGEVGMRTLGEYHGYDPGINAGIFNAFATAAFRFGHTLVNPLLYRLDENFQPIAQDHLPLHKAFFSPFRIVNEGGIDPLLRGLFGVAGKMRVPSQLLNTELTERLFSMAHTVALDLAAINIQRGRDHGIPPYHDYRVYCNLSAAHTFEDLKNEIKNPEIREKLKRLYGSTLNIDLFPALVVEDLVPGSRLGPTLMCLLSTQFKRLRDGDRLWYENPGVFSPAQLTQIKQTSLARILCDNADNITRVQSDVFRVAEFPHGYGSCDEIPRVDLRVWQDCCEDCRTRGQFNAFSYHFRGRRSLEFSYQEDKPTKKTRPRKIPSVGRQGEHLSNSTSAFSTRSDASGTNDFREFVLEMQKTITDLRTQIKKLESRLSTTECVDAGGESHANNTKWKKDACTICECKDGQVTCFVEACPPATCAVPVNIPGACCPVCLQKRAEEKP
Structure (SMILES),tested on,assay,test system,setting,scale,quantity,result
C=CC(=O)N1CCC[C@@H](n2nc(-c3ccc(Oc4ccccc4)cc3)c3c(N)ncnc32)C1,"PDGFRB (Homo sapiens, UniProt P09619)",,,1 µM,,remaining activity,109%
O=S(=O)(NC1CCSc2c(F)cccc21)c1c(O)cc(F)c(F)c1F (stereo not shown),malate dehydrogenase,"enzyme activity, inhibitor",,"200 µM, pH 7.0, 1% DMSO, aggregation counter-screen",,remaining activity,122%
NC/C(=C\F)COc1cccc(Cn2c(=S)[nH]c(=O)c3[nH]cnc32)c1,"Peroxidasin homolog (PXDN, Homo sapiens, UniProt Q92626)",Amplex UltraRed,,30 µM,reference: control,remaining activity,17.4%
O=C(NC1CCC1)c1ccc2nc(-c3cccc(NS(=O)(=O)NCCN4CCCCC4)c3)cn2c1,"LATS1 (Homo sapiens, UniProt O95835)",enzyme activity,,10 µM,,remaining activity,100%
COc1cc(F)ccc1-c1ncnc(Nc2cccc(C[S@](C)(=N)=O)c2)n1,TLK2,kinase activity,,"10 µM, together with: 10 µM ATP",,remaining activity,100%
Cc1ccc(Sc2ccc(NC(=O)CCl)cc2)cc1C,UCHL1,"covalent, intact protein LC-MS",,12.5 µM,,labelling,12.9%
COc1cc(Nc2ncc3c(n2)-c2ccc(Cl)cc2C(c2c(F)cccc2OC)=NC3)ccc1C(=O)O,MAPKAPK5,kinase activity,,1 µM,,remaining activity,104%
CCOC(=O)C1CCCN(Cc2ccc(-c3ccccc3)cc2)C1 (stereo not shown),Trypanosoma cruzi,"reporter translation, Renilla luciferase mRNA translation",cell-free extract,40 µM,reference: DMSO,inhibition,-11.6%
Cn1ncc(S(=O)(=O)NC(c2ccc(Cl)cc2)c2cccc(Cl)c2)c1C(=O)O (stereo not shown),malate dehydrogenase,"enzyme activity, inhibitor",,"200 µM, pH 7.0, 1% DMSO, aggregation counter-screen",,remaining activity,89%
O=C(O)c1ccc(Nc2ncc3c(n2)-c2ccc(Cl)cc2C(c2c(F)cccc2F)=NC3)cc1,human JAK2(h),kinase activity,,1 µM,,remaining activity,92%
Cn1ncc(S(=O)(=O)NC(c2ccc(Cl)cc2)c2cccs2)c1C(=O)O (stereo not shown),malate dehydrogenase,"enzyme activity, inhibitor",,"200 µM, pH 7.0, 1% DMSO, aggregation counter-screen",,remaining activity,81%
N#CC(=Cc1ccc(C#N)cc1)C(=O)Nc1cccc2ccccc12,UCHL1,"covalent, intact protein LC-MS",,12.5 µM,,labelling,39%
COc1cc(-c2cncc3c2CN(C)Cc2cc(N4CCNCC4)ccc2-3)cc(OC)c1OC,"STK32A (Homo sapiens, UniProt Q8WU08)",kinase activity,,"1 µM, human enzyme, together with: ATP 10 µM",reference: DMSO control,remaining activity,104%
NC(=O)N1CCc2ccc(NS(=O)(=O)c3cc(Cl)cc(Cl)c3O)cc21,malate dehydrogenase,"enzyme activity, inhibitor",,"200 µM, pH 7.0, 1% DMSO, aggregation counter-screen",,remaining activity,83%
Cc1cc(Nc2cc(N3CCN(C)CC3)nc(Sc3ccc(NC(=O)C4CC4)cc3)n2)[nH]n1,TLK2,"kinase activity, KinaseProfiler",,"0.03 µM, species human",reference: control,remaining activity,98%
Nc1nc2nn[nH]c2c(=O)[nH]1,Trypanosoma cruzi,"reporter translation, Renilla luciferase mRNA translation",cell-free extract,40 µM,reference: DMSO,inhibition,11.1%

# For quick reference, copied from above:
Structure (SMILES),tested on,assay,test system,setting,scale,quantity,result
Cc1ccc(Sc2ccc(NC(=O)CCl)cc2)cc1C,UCHL1,"covalent, intact protein LC-MS",,12.5 µM,,labelling,12.9%
